Measured values from different studies.
Numbered parts are unrelated; each lists some results of a single study. Positions count from the first letter of the parent shown.

Block 1 — target: XBP1, bZIP domain (human); technique: DHFR protein complementation; sample: yeast; baseline: wild-type JUN-FOS pair; direction: higher = stronger binding
Notes: single substitutions, most at no-binding floor
Parent: JUN, bZIP domain (human); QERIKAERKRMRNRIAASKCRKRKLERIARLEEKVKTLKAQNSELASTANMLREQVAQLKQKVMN; partner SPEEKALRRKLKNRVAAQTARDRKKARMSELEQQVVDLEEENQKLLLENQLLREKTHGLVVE
Substitution | binding fitness
L45T | -1.46 natural log
V56W | -0.514 natural log
K34E | -1.35 natural log
R53D | -1.6 natural log
V56F | -0.388 natural log
L52K | -1.3 natural log
A40T | -0.902 natural log
A29I | -0.94 natural log

Block 2 — technique: protein-binding microarray; form: double-stranded DNA, one strand shown; sample: in vitro; tested at: not given; direction: higher = stronger binding
Target: Transcriptional repressor CTCF (CTCF, Homo sapiens, UniProt P49711, residues 1-727, full length assumed)
Notes: k-mer, scored over probes, only values ≥0.25
Residues (chain): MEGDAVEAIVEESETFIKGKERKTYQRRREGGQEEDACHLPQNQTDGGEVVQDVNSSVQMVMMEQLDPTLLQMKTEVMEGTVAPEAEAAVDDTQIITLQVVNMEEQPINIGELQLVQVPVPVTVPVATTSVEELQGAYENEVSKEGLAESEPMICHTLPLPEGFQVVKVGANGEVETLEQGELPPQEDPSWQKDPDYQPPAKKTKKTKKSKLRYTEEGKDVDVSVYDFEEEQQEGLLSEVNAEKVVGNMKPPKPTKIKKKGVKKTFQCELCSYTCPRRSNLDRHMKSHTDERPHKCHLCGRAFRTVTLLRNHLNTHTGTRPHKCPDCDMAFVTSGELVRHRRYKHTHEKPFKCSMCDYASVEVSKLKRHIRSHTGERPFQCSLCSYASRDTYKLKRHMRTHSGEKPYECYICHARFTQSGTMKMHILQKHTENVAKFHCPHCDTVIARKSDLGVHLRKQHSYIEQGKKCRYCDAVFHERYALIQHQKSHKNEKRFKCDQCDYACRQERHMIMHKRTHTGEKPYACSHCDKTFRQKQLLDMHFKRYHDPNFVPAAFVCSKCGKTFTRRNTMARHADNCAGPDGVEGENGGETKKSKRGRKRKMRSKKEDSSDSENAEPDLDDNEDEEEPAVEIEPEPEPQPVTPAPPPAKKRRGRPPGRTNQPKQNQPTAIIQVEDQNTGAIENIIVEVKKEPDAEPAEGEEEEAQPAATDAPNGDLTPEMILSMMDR
Sequence | E-score
AAAAAGCG | 0.271
ATTTACTC | 0.305
AATGATTA | 0.258
ACTATATA | 0.311
ATTTTACC | 0.291
ATATTCCA | 0.285
ATATGGTG | 0.255
CATTACCA | 0.355

Block 3 — target: UBE2E1 UBC core domain (UniProt P51965); technique: yeast two-hybrid; sample: yeast; notes: mostly zero background; baseline: not given; direction: higher = stronger interaction
Chain of UniProt P51965 (whole entry, looked up): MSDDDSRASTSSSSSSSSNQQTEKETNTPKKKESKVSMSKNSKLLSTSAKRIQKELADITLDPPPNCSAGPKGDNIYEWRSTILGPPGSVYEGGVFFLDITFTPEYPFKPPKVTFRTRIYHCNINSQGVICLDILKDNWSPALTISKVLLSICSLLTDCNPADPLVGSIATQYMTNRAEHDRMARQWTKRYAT
B1: IRF2BPL RING domain (UniProt Q9H1B7); chain SPMANSGPLCCTICHERLEDTHFVQCPSVPSHKFCFPCSRESIKAQGATGEVYCPSGEKCPLVGSNVP
B2: ZNF598 RING domain (UniProt Q86UK7); chain AAAPERGGGSCVLCCGDLEATALGRCDHPVCYRCSTKMRVLCEQRYCAVCREELRQVVFGK
B3: RNF25 RING domain (UniProt Q96BH1); chain LTDNNIPHGQCVICLYGFQEKEAFTKTPCYHYFHCHCLARYIQHMEQELKAQGQEQEQERQHATTKQKAVGVQCPVCREPLVYDLASL
B4: CUL9 RING domain (UniProt Q8IWT3); chain AQAVPVRPDHCPVCVSPLGCDDDLPSLCCMHYCCKSCWNEYLTTRIEQNLVLNCTCPIADCPAQPTGAFIR
Sequence | lacZ reporter activity
FPEHFVKSISCQICEHILADPVETNCKHVFCRVCILRCLKVMGSYCPSCRYPCFPTDLES (RAG1 RING domain (UniProt P15918)) | 0
DDENSDNSNECVVCLSDLRDTLILPCRHLCLCTSCADTLRYQANNCPICRLPFRALLQIR (MGRN1 RING domain (UniProt O60291)) | 0
B1 (IRF2BPL RING domain) | 0
B2 (ZNF598 RING domain) | 0
B3 (RNF25 RING domain) | 7310
B4 (CUL9 RING domain) | 0
KTLSRFGIQPCSICLGDAKDPVCLPCDHVHCLRCLRAWFASEQMICPYCLTALPDEFSPA (RNF213 RING domain (UniProt Q63HN8)) | 0
QLQDIKEQTMCPVCLDRLKNMIFLCGHGTCQLCGDRMSECPICRKAIERRILLY (MIB1 RING domain (UniProt Q86YT6)) | 0

Further values, each from its own experiment — parent: viral docking peptide; YKVKRRLVFGADD
Substitution | target | assay | system | conditions | scale | quantity | result
YKVMRRLVFGADD [K4M] | CCNB3, cyclin fold, Cln2 fusion (human) | yeast growth competition, sequencing | yeast | strong parent motif | baseline: not given, higher = stronger binding | normalised enrichment score | -0.0905

Repeated from above (block 1):
Substitution | binding fitness
R53D | -1.6 natural log
L52K | -1.3 natural log
A29I | -0.94 natural log
V56W | -0.514 natural log
